Measured values collected from several papers.
A part holds a random share of what one study measured. Several values in a cell are separate wells, animals, samples, runs or records.
UniProt P54760, sequence (whole entry, looked up): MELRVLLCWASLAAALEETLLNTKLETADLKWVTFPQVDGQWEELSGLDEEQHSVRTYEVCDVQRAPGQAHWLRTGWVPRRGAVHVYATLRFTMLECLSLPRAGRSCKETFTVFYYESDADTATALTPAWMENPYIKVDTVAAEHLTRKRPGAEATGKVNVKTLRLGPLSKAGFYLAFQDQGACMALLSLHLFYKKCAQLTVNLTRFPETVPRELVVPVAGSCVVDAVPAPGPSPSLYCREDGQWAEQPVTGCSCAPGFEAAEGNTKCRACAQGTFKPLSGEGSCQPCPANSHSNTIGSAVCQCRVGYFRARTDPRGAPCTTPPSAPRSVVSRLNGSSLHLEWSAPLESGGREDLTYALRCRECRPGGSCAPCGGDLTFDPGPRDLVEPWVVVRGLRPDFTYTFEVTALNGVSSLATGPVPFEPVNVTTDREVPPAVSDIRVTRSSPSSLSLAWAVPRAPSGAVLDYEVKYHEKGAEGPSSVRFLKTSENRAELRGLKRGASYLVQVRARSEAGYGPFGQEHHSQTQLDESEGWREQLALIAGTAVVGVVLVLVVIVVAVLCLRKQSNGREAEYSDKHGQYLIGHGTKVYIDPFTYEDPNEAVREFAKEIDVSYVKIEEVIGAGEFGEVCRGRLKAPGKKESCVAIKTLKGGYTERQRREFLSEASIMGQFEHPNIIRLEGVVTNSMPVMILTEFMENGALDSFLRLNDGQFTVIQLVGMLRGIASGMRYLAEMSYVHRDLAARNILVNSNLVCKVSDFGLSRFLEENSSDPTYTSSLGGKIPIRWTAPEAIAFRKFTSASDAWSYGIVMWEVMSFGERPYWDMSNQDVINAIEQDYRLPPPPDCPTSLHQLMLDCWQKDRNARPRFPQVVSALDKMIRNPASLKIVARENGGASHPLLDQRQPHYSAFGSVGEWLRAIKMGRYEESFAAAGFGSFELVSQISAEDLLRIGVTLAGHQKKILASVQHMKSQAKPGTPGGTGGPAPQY
UniProt Q9P289, sequence (whole entry, looked up): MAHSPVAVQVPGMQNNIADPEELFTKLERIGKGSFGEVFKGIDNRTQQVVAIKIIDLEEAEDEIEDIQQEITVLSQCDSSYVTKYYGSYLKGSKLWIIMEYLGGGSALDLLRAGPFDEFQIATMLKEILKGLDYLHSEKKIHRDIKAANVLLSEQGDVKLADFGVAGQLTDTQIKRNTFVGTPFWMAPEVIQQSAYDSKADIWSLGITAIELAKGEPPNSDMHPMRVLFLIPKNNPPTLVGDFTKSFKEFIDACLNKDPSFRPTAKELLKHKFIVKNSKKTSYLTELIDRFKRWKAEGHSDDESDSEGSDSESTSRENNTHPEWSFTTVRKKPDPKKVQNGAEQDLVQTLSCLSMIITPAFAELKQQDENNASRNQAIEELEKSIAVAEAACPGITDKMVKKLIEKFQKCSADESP
UniProt Q99683, sequence (whole entry, looked up): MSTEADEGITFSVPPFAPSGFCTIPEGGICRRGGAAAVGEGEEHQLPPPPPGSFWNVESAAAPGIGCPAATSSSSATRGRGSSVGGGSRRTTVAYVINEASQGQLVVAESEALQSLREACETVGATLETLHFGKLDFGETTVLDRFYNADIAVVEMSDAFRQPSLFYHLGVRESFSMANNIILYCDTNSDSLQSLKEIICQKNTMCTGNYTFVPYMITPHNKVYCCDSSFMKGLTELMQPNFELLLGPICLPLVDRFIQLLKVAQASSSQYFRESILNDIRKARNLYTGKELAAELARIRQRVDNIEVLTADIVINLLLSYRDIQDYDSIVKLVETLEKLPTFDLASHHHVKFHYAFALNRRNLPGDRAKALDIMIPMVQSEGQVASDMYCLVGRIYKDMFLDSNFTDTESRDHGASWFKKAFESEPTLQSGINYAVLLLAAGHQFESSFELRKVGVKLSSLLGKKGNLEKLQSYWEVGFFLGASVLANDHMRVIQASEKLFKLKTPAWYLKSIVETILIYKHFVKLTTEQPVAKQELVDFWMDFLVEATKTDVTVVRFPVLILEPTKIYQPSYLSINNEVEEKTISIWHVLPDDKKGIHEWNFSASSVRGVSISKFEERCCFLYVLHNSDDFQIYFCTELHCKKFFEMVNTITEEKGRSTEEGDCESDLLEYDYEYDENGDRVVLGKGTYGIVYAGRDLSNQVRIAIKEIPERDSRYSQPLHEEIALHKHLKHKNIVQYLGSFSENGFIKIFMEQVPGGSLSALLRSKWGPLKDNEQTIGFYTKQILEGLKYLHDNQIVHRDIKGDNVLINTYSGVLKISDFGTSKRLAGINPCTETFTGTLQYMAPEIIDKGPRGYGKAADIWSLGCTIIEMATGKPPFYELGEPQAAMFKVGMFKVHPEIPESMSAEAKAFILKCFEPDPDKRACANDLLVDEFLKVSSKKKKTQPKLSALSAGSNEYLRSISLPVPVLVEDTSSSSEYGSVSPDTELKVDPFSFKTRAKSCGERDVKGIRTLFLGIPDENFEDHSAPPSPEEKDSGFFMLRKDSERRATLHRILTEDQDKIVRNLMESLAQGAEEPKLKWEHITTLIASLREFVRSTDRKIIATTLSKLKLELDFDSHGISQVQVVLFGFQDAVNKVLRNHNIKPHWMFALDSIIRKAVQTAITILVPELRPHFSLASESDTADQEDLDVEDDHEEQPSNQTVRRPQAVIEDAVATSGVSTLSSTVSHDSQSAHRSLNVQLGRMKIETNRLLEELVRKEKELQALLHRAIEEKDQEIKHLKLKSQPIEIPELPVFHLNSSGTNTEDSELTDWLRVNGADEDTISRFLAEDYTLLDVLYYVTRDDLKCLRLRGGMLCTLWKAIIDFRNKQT
UniProt Q9NRP7, sequence (whole entry, looked up): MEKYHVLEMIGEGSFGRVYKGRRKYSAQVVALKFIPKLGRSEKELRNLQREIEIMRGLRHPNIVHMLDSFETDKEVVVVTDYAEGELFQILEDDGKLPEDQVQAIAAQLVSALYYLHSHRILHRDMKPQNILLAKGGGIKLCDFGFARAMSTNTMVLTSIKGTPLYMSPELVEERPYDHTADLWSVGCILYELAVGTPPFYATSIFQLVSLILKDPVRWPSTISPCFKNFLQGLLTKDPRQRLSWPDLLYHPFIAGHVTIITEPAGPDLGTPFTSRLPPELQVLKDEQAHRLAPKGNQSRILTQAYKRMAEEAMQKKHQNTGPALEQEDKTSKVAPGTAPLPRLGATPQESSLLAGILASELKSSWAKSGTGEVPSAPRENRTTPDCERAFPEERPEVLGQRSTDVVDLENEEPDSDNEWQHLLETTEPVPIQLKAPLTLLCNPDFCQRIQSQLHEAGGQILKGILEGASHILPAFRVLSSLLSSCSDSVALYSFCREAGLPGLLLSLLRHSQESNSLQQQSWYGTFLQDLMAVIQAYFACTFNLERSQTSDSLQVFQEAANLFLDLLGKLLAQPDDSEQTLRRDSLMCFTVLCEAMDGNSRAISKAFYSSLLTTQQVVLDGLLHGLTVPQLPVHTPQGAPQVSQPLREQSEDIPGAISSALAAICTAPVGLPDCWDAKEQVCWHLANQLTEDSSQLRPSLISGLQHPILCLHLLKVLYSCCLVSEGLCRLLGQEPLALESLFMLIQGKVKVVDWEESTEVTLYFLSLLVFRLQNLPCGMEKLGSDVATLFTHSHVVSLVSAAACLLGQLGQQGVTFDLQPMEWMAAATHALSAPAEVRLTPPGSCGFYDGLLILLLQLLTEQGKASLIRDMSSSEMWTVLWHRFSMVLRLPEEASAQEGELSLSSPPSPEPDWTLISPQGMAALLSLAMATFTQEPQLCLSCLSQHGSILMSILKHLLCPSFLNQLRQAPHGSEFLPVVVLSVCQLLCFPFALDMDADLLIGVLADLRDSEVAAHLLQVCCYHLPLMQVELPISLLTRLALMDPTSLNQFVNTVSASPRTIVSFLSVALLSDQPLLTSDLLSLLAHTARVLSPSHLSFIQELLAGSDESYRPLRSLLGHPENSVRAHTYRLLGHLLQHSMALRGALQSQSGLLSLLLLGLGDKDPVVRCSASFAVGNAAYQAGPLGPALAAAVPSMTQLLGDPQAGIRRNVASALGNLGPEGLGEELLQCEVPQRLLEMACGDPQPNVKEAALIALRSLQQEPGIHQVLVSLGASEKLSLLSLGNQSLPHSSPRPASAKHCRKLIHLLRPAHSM
UniProt P31751, sequence (whole entry, looked up): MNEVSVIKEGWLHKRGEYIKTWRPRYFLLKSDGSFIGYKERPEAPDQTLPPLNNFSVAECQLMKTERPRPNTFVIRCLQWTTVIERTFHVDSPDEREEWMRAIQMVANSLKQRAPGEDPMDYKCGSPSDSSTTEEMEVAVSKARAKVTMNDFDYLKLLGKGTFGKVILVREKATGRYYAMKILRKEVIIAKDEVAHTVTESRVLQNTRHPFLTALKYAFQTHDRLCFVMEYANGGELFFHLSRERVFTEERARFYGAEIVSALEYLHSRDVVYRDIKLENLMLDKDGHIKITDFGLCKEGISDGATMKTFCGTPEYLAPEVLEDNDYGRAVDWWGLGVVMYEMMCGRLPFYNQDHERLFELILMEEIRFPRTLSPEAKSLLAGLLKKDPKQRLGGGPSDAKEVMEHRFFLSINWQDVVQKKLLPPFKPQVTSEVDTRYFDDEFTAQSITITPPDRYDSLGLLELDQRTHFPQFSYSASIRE

Block 1
Compound: Nc1c(C(=O)NCc2ccc(C(=O)NCCCC3CCCCC3)cc2)cnn1-c1ccccc1
Observed: cell-free assay
Technique: competition with immobilised ligand
Concentration: 0.1 µM
| target | remaining binding |
| --- | --- |
| RAC-beta serine/threonine-protein kinase (AKT2, Homo sapiens, UniProt P31751) | 96% |
| Interleukin-1 receptor-associated kinase 4 (IRAK4, Homo sapiens, UniProt Q9NWZ3) | 100% |
| Ephrin type-B receptor 4 (EPHB4, Homo sapiens, UniProt P54760) | 100% |
| Serine/threonine-protein kinase 36 (STK36, Homo sapiens, UniProt Q9NRP7) | 100% |
| Serine/threonine-protein kinase 26 (STK26, Homo sapiens, UniProt Q9P289) | 97% |
| NUAK family SNF1-like kinase 1 (NUAK1, Homo sapiens, UniProt O60285) | 100% |
| Mitogen-activated protein kinase kinase kinase 5 (MAP3K5, Homo sapiens, UniProt Q99683) | 81% |
| Casein kinase I isoform gamma-1 (CSNK1G1, Homo sapiens, UniProt Q9HCP0) | 100% |
| Epidermal growth factor receptor (EGFR, Homo sapiens, UniProt P00533, del752-759) | 100% |
| Serine/threonine-protein kinase PAK 6 (PAK6, Homo sapiens, UniProt Q9NQU5) | 100% |
| Serine/threonine-protein kinase MARK1 (MARK1, Homo sapiens, UniProt Q9P0L2) | 79% |

Block 2
Target: Calcium/calmodulin-dependent protein kinase type II subunit alpha (CAMK2A, Homo sapiens, UniProt Q9UQM7)
UniProt Q9UQM7, sequence (whole entry, looked up): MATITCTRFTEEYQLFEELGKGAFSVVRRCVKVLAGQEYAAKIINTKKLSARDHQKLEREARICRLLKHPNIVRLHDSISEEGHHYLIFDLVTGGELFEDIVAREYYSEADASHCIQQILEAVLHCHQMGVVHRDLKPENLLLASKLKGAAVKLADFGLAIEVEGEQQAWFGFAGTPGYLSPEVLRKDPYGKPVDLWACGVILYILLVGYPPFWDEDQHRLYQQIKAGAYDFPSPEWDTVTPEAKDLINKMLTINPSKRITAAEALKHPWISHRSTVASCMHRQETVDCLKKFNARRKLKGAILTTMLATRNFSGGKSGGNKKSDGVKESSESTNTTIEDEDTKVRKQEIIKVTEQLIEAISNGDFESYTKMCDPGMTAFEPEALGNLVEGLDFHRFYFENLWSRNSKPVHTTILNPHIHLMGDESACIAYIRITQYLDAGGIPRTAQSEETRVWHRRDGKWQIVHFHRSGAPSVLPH
Observed: enzyme activity
Mode: inhibitor
Concentration: 10 µM
| Structure (SMILES) | inhibition [%] |
| --- | --- |
| C=C[C@]1(C)C[C@@H](OC(=O)CS[C@@H]2CC[C@@H](N)C[C@H]2O)[C@]2(C)[C@H](C)CC[C@]3(CCC(=O)[C@H]32)[C@@H](C)[C@@H]1O | 2 |
| O=S(=O)(O)CCS | -11 |
| Cc1cc(=O)c2c(O)c3c(cc2o1)OC(C)(C)[C@@H](O[C@@H]1O[C@H](CO)[C@@H](O)[C@H](O)[C@H]1O)C3 | 8 |
| Cc1cnccn1 | 51 |
| O=C(O)Cc1ccc(-c2ccccc2)cc1 | 2 |
| CC(C)=CCC/C(C)=C\CO | 8 |
| CC(C)=CCC/C(C)=C/CC/C(C)=C/C=C/C(C)=C/C(=O)O | -13 |
| COC(=O)CCC(=O)CN | 8 |
| O=c1ccn([C@@H]2O[C@H](COP(=O)(O)OP(=O)(O)O)[C@@H](O)[C@H]2O)c(=O)[nH]1 | 3 |

Block 3
Target: Tyrosine-protein kinase JAK3 (JAK3, Homo sapiens, UniProt P52333)
Observed: enzyme activity
Mode: inhibitor
Concentration: 0.5 µM
Baseline: control
Residues (P52333 1-1124): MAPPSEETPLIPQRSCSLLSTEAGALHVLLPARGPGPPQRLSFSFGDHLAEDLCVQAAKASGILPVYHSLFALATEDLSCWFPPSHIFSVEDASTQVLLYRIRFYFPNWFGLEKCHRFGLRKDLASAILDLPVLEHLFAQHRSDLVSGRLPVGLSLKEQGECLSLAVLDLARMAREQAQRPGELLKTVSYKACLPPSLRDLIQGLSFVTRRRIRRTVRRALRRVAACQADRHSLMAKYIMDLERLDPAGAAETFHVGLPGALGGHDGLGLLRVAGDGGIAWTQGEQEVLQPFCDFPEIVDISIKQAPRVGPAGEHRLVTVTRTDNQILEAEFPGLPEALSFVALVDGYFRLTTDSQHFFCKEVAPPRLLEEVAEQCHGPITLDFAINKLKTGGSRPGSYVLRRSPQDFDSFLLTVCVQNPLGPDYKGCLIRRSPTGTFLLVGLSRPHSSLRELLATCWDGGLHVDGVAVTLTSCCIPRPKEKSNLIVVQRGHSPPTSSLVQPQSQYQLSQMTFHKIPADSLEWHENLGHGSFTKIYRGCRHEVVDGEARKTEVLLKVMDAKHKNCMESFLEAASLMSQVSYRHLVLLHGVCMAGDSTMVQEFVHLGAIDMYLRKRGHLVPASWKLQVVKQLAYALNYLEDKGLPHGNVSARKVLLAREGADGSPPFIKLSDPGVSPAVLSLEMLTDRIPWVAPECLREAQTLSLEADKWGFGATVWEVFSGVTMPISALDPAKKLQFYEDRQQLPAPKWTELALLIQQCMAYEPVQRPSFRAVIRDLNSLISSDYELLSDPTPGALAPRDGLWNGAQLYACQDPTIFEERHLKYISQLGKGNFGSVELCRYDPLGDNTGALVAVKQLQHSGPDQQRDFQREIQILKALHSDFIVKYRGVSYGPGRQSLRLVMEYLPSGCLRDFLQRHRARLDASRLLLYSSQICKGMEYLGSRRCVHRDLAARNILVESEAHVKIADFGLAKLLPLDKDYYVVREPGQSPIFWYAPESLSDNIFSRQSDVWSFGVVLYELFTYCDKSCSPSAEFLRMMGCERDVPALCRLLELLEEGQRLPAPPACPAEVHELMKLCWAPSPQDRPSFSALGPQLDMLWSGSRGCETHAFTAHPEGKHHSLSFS
| Structure (SMILES) | remaining activity |
| --- | --- |
| O=S(=O)(c1cccc2cnccc12)N1CCCNCC1 | 120% |
| NCCNc1ncc(C(N)=O)c(Nc2cccc(C(F)(F)F)c2)n1 | 93.4% |
| N#CC(C#N)=C(N)/C(C#N)=C/c1ccc(O)cc1 | 102% |
| O=C(O)c1ccc2c3c1cccc3c(=O)n1c3ccccc3nc21 | 46.9% |
| O=C(Nc1cccc(Nc2cc(Nc3cccc(C(F)(F)F)c3)ncn2)c1)C1CC1 | 106% |
| O=C1NC(=O)C(c2cn(CCCO)c3ncccc23)=C1c1cnccn1 | 134% |
| OCC(O)CCON=C1C(c2c(O)[nH]c3ccccc23)=Nc2ccccc21 (stereo not drawn) | 16.9% |
| O=C(CCCc1ccc(-c2ccccc2F)cc1)Nc1ccc(O)cc1 | 92.1% |
| Cc1ccc(NC(=O)c2ccc(CN3CCN(C)CC3)cc2)cc1Nc1nc(-c2cccnc2)cs1 | 93.7% |
| COc1ccc(CNC(=O)Nc2ncc([N+](=O)[O-])s2)cc1 | 105% |
| CC(C)[C@H](CO)Nc1nc(Nc2cc(N)cc(Cl)c2)c2ncn(C(C)C)c2n1 | 108% |
| C#Cc1cccc(Nc2ncnc3cc(OCCOC)c(OCCOC)cc23)c1 | 91.3% |
| CN(C)c1ccc(C=C2C(=O)Nc3ccccc32)cc1 | 113% |
| CO[C@H]1C[C@@H]2CC[C@@H](C)[C@@](O)(O2)C(=O)C(=O)N2CCCC[C@H]2C(=O)O[C@H]([C@H](C)C[C@@H]2CC[C@@H](O)[C@H](OC)C2)CC(=O)[C@H](C)/C=C(\C)[C@@H](O)[C@@H](OC)C(=O)[C@H](C)C[C@H](C)/C=C/C=C/C=C/1C | 92.4% |

Block 4
Cell line: mouse MPNST tumor cells
Technique: high-content nuclear imaging
Item: cell number
Concentration: 10 µM
Time: 12 h
Notes: mean of 2 replicates
Baseline: plate mean
Direction: higher = more cells
| Structure (SMILES) | nuclei count |
| --- | --- |
| COc1cc(N)c(Cl)cc1C(=O)NC1CCN(CCCOc2ccc(F)cc2)CC1OC (stereo not drawn) | 0.253 z-score and 2.51 z-score and -0.142 z-score |
| O=C(CCCN1CCN(c2ccccn2)CC1)c1ccc(F)cc1 | 0.425 z-score |
| NS(=O)(=O)c1c(Cl)ccc(NC(=O)Nc2cccc(Cl)c2Cl)c1O | -0.199 z-score |
| CCc1cncnc1N1CCN(Cc2nc3ccc(C(F)(F)F)cc3[nH]2)CC1 | 2.23 z-score |
| C[C@](Cc1c[nH]c2ccccc12)(NC(=O)OC1[C@H]2C[C@@H]3C[C@@H](C[C@H]1C3)C2)C(=O)NC[C@H](NC(=O)CCC(=O)O)c1ccccc1 (stereo partly drawn) | -0.302 z-score |
| CC(C)(C)c1cc(C(=O)C(C#N)=NNc2cccc(Cl)c2)no1 | 2.62 z-score |
| NS(=O)(=O)c1cc(C2(O)NC(=O)c3ccccc32)ccc1Cl (stereo not drawn) | 0.407 z-score |
| CCN(CC)CCNC(=O)c1cc(S(C)(=O)=O)ccc1OC | 0.589 z-score |

Excerpt of the above (block 2):
| Structure (SMILES) | inhibition [%] |
| --- | --- |
| C=C[C@]1(C)C[C@@H](OC(=O)CS[C@@H]2CC[C@@H](N)C[C@H]2O)[C@]2(C)[C@H](C)CC[C@]3(CCC(=O)[C@H]32)[C@@H](C)[C@@H]1O | 2 |
| Cc1cc(=O)c2c(O)c3c(cc2o1)OC(C)(C)[C@@H](O[C@@H]1O[C@H](CO)[C@@H](O)[C@H](O)[C@H]1O)C3 | 8 |
| Cc1cnccn1 | 51 |
